Assay results collected from several papers.
Compare with care: the assays were run in different laboratories.
Organism: Escherichia coli

SMILES | assay | test system | conditions | MIC
COc1cc(C(=O)Nc2ccc(C(=O)O)c(O)c2)ccc1NC(=O)c1ccc(NC(=O)[C@H](Cc2c[nH]nn2)NC(=O)c2ccc(NC(=O)/C(C)=C/c3ccc(O)cc3)cc2)cc1 | broth microdilution | ciprofloxacin-resistant |  | 1 µg/mL
COc1ccc2ccc(O)c(/C=N/[C@H]3CCCC[C@H]3/N=C/c3cc(C)ccc3O)c2c1 | microbial growth, broth dilution |  | clinical isolate | > 40 µM
CN[C@H](CC(C)C)C(=O)N[C@H]1C(=O)N[C@@H](CC(N)=O)C(=O)N[C@H]2C(=O)N[C@H]3C(=O)N[C@H](C(=O)N[C@H](C(=O)NCc4cn(CCCCC(=O)N[C@H](C(=O)N[C@@H](CCN)C(=O)N[C@H]5CCNC(=O)[C@H]([C@@H](C)O)NC(=O)[C@H](CCN)NC(=O)[C@H](CCN)NC(=O)[C@H](CC(C)C)NC(=O)[C@@H](CC(C)C)NC(=O)[C@H](CCN)NC5=O)[C@@H](C)O)nn4)c4cc(O)cc(O)c4-c4cc3ccc4O)[C@H](O)c3ccc(c(Cl)c3)Oc3cc2cc(c3O[C@@H]2O[C@H](CO)[C@@H](O)[C@H](O)[C@H]2O[C@H]2C[C@](C)(N)[C@H](O)[C@H](C)O2)Oc2ccc(cc2Cl)[C@H]1O | broth microdilution | ATCC 35218, cation-adjusted Mueller-Hinton broth | 18 to 20 h, 37 °C, 0.002% polysorbate 80 | 16 µg/mL
CCCCCCCCCCCC[N+](C)(C)CCCCCCOc1cc(OCCCCCC[N+](C)(C)CCCCCCCCCCCC)cc(OCCCCCC[N+](C)(C)CCCCCCCCCCCC)c1.[Br-].[Br-].[Br-] |  | MC4100 |  | 16 µM
CC[C@H](C)[C@H](NC(=O)[C@H](CCC(N)=O)NC(=O)[C@H](Cc1ccccc1)NC(=O)[C@H](CC(N)=O)NC(=O)[C@H](CCCCN)NC(=O)[C@H](CC(C)C)NC(=O)[C@H](CCCNC(=N)N)NC(=O)[C@H](CCCCN)NC(=O)[C@H](CCCCN)NC(=O)[C@@H](NC(=O)[C@H](CO)NC(=O)[C@H](CCCCN)NC(=O)CNC(=O)[C@H](CC(C)C)NC(=O)[C@H](CCCCN)NC(=O)[C@H](CCCCN)NC(=O)[C@H](CC(C)C)NC(=O)[C@H](CCCCN)NC(=O)[C@H](CCCCN)NC(=O)[C@H](CCCNC(=N)N)NC(=O)[C@H](CC(C)C)NC(=O)CNC(=O)[C@@H](N)CCCNC(=N)N)[C@@H](C)CC)C(=O)NCC(=O)N[C@@H](Cc1ccccc1)C(=O)N[C@@H](CO)C(=O)N[C@H](C(=O)N1CCC[C@H]1C(=O)N[C@@H](Cc1ccccc1)C(=O)N[C@@H](C)C(=O)NCC(=O)O)C(C)C | broth microdilution | ATCC 25922 |  | 2.36 µM
COc1ccc(/C=N/[C@@H]2CCCC[C@@H]2/N=C/c2c(O)ccc3ccc(OC)cc23)c(O)c1 | microbial growth, broth dilution |  |  | > 40 µM
CC[C@H]1OC(=O)[C@H](C)[C@@H](OC(=O)Cc2c(F)cc([N+](=O)[O-])cc2F)[C@H](C)[C@@H](O[C@@H]2O[C@H](C)C[C@H](N(C)C)[C@H]2O)[C@](C)(OC)C[C@@H](C)C(=O)[C@H](C)[C@@H](O)[C@]1(C)O |  | tolC |  | 2 µg/mL
Cc1c(CN(C)C(=O)/C=C/c2cnc3c(c2)CC(CN)C(=O)N3)oc2ccccc12 (centres unmarked) | microbial growth, broth dilution | MG1655 | clinical isolate | 8 µg/mL
Cn1nc(CNc2nnn[nH]2)c(=O)c2c(=O)[nH]c(N)nc21 | microbial growth, broth dilution | BW25113 | 18 h | > 100 µg/mL
CC[C@H]1OC(=O)[C@H](C)[C@@H](OC(=O)Cc2cccc3ccccc23)[C@H](C)[C@@H](O[C@@H]2O[C@H](C)C[C@H](N(C)C)[C@H]2O)[C@](C)(OC)C[C@@H](C)C(=O)[C@H](C)[C@@H](O)[C@]1(C)O |  | lpxC |  | > 32 µg/mL
Cn1nc(CO)c(=O)c2c(=O)[nH]c(N)nc21 | microbial growth, broth dilution | BW25113 | 18 h | 50 µg/mL
CC[C@H]1OC(=O)[C@H](C)[C@@H](OC(=O)Cc2ccc3c(c2)OCO3)[C@H](C)[C@@H](O[C@@H]2O[C@H](C)C[C@H](N(C)C)[C@H]2O)[C@](C)(OC)C[C@@H](C)C(=O)[C@H](C)[C@@H](O)[C@]1(C)O | microbial growth | ATCC25922 |  | > 32 µg/mL
C/C(=C\c1ccc(O)cc1)C(=O)Nc1ccc(C(=O)N[C@@H](Cc2c[nH]nn2)C(=O)Nc2ccc(C(=O)Nc3ccc(C(=O)Nc4ccc(C(=O)O)cc4)cc3)cc2)cc1 | broth microdilution | ciprofloxacin-resistant |  | 0.25 µg/mL
COc1ccc2ccc(O)c(/C=N/[C@H]3CCCC[C@H]3/N=C/c3cccc(OC)c3O)c2c1 | microbial growth, broth dilution |  | clinical isolate | > 40 µM
CC[C@H]1OC(=O)[C@H](C)[C@@H](OC(=O)Cc2ccc(Cl)cc2)[C@H](C)[C@@H](O[C@@H]2O[C@H](C)C[C@H](N(C)C)[C@H]2O)[C@](C)(OC)C[C@@H](C)C(=O)[C@H](C)[C@@H](O)[C@]1(C)O | microbial growth | ATCC25922 |  | > 32 µg/mL
C#CCOc1ccc(CN[C@@]2(C)C[C@H](O[C@H]3[C@H](Oc4c5cc6cc4Oc4ccc(cc4Cl)[C@@H](O)[C@@H](NC(=O)[C@@H](CC(C)C)NC)C(=O)N[C@@H](CC(N)=O)C(=O)N[C@H]6C(=O)N[C@H]4C(=O)N[C@H](C(=O)N[C@H](C(=O)NCC(N)=O)c6cc(O)cc(O)c6-c6cc4ccc6O)[C@H](O)c4ccc(c(Cl)c4)O5)O[C@H](CO)[C@@H](O)[C@@H]3O)O[C@@H](C)[C@H]2O)cc1OC | broth microdilution | ATCC 35218, cation-adjusted Mueller-Hinton broth | 18 to 20 h, 37 °C, 0.002% polysorbate 80 | 32 µg/mL
C#CCNC(=O)C(C)(C)O/N=C(\C(=O)N[C@@H]1C(=O)N(S(=O)(=O)O)[C@H]1C)c1csc(N)n1 | microbial growth, agar dilution | ATCC25 |  | 2 µg/mL
COc1cc(C(=O)O)ccc1NC(=O)c1ccc(NC(=O)c2ccc(NC(=O)[C@H](Cc3c[nH]nn3)NC(=O)c3ccc(NC(=O)/C(C)=C/c4ccc(O)cc4)cc3)cc2)c(OC)c1 | broth microdilution | ciprofloxacin-resistant |  | 2 µg/mL

SMILES | assay | test system | conditions | MIC
CC[C@H]1OC(=O)[C@H](C)[C@@H](OC(=O)Cc2cccc(Cl)c2)[C@H](C)[C@@H](O[C@@H]2O[C@H](C)C[C@H](N(C)C)[C@H]2O)[C@](C)(OC)C[C@@H](C)C(=O)[C@H](C)[C@@H](O)[C@]1(C)O |  | lpxC |  | 16 µg/mL
COc1nc(C(=O)Nc2ccc(C(=O)O)nc2OC)ccc1NC(=O)c1ccc(NC(=O)[C@H](Cc2c[nH]nn2)NC(=O)c2ccc(NC(=O)/C(C)=C/c3ccc(O)cc3)cc2)cc1 | broth microdilution | DSM 1116 |  | 0.5 µg/mL
CCC(CC)c1cc(CCN2CCCN(S(C)(=O)=O)CC2)nc(-c2ccccn2)n1 | microbial growth, broth dilution | ATCC25922 |  | > 64 µg/mL
COc1c(NC(=O)c2ccc(NC(=O)c3ccc(NC(=O)[C@H](CC#N)NC(=O)c4ccc(NC(=O)/C(C)=C/c5ccc(O)cc5)cc4)cc3)c(OC)c2O)ccc(C(=O)O)c1O | microbial growth | DSM1116 |  | 0.1 µg/mL
COc1cc(C(=O)Nc2ccc(C(=O)O)cc2)ccc1NC(=O)c1ccc(NC(=O)[C@H](Cc2c[nH]nn2)NC(=O)c2ccc(NC(=O)/C(C)=C/c3ccc(O)cc3)cc2)cc1 | broth microdilution | BW25113 |  | 4 µg/mL
CCCCCCCCCCCC(=O)Oc1c(C)c(OC)c2c(c1C)OC(=O)[C@@H](CCCCCCCCCC)[C@]2(O)/C=C/c1ccccc1 (relative stereo) | microbial growth, broth dilution | ATCC25922 |  | 5000 µg/mL
CCCCCCCCCCCCCCCCCCn1cc(CN(CCC(=O)NCCN(CCC(=O)NCCN(CCC(=O)NCCN(C)C)CCC(=O)NCCN(C)C)CCC(=O)NCCN(CCC(=O)NCCN(C)C)CCC(=O)NCCN(C)C)CCC(=O)NCCN(CCC(=O)NCCN(CCC(=O)NCCN(C)C)CCC(=O)NCCN(C)C)CCC(=O)NCCN(CCC(=O)NCCN(C)C)CCC(=O)NCCN(C)C)nn1 |  | AR Bank 0349, LB broth | 18 h | 6 µg/mL
C[C@H](CS)C(=O)Nc1cccc(-c2nn[nH]n2)c1 | broth microdilution, refers to: meropenem | DH5α pET28-lacUV5 control | 25 µM, together with: meropenem | < 0.125 µg/mL
CCOc1c(NC(=O)c2ccc(NC(=O)[C@H](Cc3c[nH]nn3)NC(=O)c3ccc(NC(=O)/C(C)=C/c4ccc(O)cc4)cc3)cc2)ccc(C(=O)Nc2ccc(C(=O)O)c(O)c2OC)c1O | broth microdilution | ciprofloxacin-sensitive |  | 0.031 µg/mL
CCCCCCn1cc[n+](CCCCOc2cc(OCCCC[n+]3ccn(CCCCCC)c3)cc(OCCCC[n+]3ccn(CCCCCC)c3)c2)c1.[Br-].[Br-].[Br-] |  | MC4100 |  | 4 µM
CCCC(=O)Oc1c(C)c(OC)c2c(c1C)OC(=O)[C@@H](CC)[C@]2(O)/C=C/c1ccccc1 (racemic) | microbial growth, broth dilution | ATCC25922 |  | 5000 µg/mL
COc1nc(C(=O)O)ccc1NC(=O)c1ccc(NC(=O)c2ccc(NC(=O)[C@H](Cc3c[nH]nn3)NC(=O)c3ccc(NC(=O)/C(C)=C/c4ccc(O)cc4)cc3)cc2)c(OC)c1O | broth microdilution | DSM 1116 |  | 0.5 µg/mL
CCN1CCC(CCNCc2cc3ccccc3nc2SCc2ccccc2)CC1 | microbial growth, broth dilution |  |  | 64 µg/mL
COc1c(NC(=O)c2ccc(NC(=O)c3ccc(NC(=O)[C@H](Cc4c[nH]nn4)NC(=O)c4ccc(NC(=O)/C(C)=C/c5ccc(O)cc5)cc4)cc3)c(OC)c2O)ccc(C(=O)O)c1O | microbial growth, broth dilution | DSM1116 |  | 0.016 µg/mL
CC1(C)[C@H](NC(=O)/C(=N\OCC(=O)N2CCC(C(=O)O)CC2)c2csc(N)n2)C(=O)N1OS(=O)(=O)O | agar dilution | 16-1, ESBL-producing |  | 1 µg/mL
CCCCCCCCn1cc[n+](CCCCCCCCOc2cc(OCCCCCCCC[n+]3ccn(CCCCCCCC)c3)cc(OCCCCCCCC[n+]3ccn(CCCCCCCC)c3)c2)c1.[Br-].[Br-].[Br-] |  | MC4100 |  | 2 µM
CC[C@H](C)[C@H](NC(=O)[C@@H](CCCNC(=N)N)NC(=O)[C@H](CCCNC(=N)N)NC(=O)[C@@H]1CCCN1C(=O)[C@@H]1CCCN1C(=O)[C@H](CCCNC(=N)N)NC(=O)[C@@H]1CCCN1C(=O)[C@H](CCCNC(=N)N)NC(=O)[C@@H]1CCCN1C(=O)[C@H](CCCNC(=N)N)NC(=O)[C@H](Cc1ccc(O)cc1)NC(=O)[C@@H]1CCCN1C(=O)[C@@H]1CCCN1C(=O)[C@H](CCCCN)NC(=O)[C@H](CC(=O)O)NC(=O)[C@@H](N)C(C)C)C(=O)N[C@@H](Cc1ccc(O)cc1)C(=O)N[C@@H](CC(N)=O)C(=O)N[C@H](CCCNC(=N)N)C(N)=O | broth microdilution | ATCC 25922 | 18 h, 37 °C, 25% MHB2 | 16 µg/mL

For quick reference, copied from above:
SMILES | assay | test system | conditions | MIC
CCN1CCC(CCNCc2cc3ccccc3nc2SCc2ccccc2)CC1 | microbial growth, broth dilution |  |  | 64 µg/mL
COc1c(NC(=O)c2ccc(NC(=O)c3ccc(NC(=O)[C@H](Cc4c[nH]nn4)NC(=O)c4ccc(NC(=O)/C(C)=C/c5ccc(O)cc5)cc4)cc3)c(OC)c2O)ccc(C(=O)O)c1O | microbial growth, broth dilution | DSM1116 |  | 0.016 µg/mL
CC1(C)[C@H](NC(=O)/C(=N\OCC(=O)N2CCC(C(=O)O)CC2)c2csc(N)n2)C(=O)N1OS(=O)(=O)O | agar dilution | 16-1, ESBL-producing |  | 1 µg/mL
